{"data": "Published values of several laboratories", "target": "Alpha-2A adrenergic receptor (ADRA2A, Homo sapiens, UniProt P08913)", "note": "Protocols differ between the studies behind these lines.", "sequence of UniProt P08913 (whole entry, looked up)": "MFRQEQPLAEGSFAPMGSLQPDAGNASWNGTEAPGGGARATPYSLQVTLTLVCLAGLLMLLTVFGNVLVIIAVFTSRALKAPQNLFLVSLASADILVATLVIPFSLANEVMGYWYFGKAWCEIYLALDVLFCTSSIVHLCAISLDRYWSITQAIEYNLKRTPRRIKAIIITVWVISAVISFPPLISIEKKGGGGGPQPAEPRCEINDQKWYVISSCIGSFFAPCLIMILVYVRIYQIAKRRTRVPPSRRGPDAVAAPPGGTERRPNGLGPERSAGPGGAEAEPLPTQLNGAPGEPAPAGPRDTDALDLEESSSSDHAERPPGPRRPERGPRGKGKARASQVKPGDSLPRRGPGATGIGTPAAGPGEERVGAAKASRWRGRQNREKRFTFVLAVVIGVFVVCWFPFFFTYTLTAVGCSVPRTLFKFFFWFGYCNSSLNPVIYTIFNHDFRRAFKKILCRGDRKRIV"}
{"Structure (SMILES)": "CCn1ccnc1CC1COc2ccccc2O1 (stereo not drawn)", "assay": "TGFα shedding", "setting": "concentration not given", "quantity": "inhibition", "value": "inhibited"}
{"Structure (SMILES)": "CCS(=O)(=O)c1nc(S(=O)(=O)c2ccccc2Cl)c(N2CCN(C)C(=O)[C@H]2C)s1", "setting": "10 µM", "quantity": "inhibition", "value": "1.85%"}
{"Structure (SMILES)": "CN1CCC(CNc2ccc3ncc(-c4cccc(OC(F)(F)F)c4)n3n2)CC1", "assay": "cAMP, antagonist, cell-based GPCR", "setting": "10 µM", "scale": "reference: control", "quantity": "response", "value": "> 50%"}
{"Structure (SMILES)": "COC(=O)[C@@H]1[C@H]2C[C@H]3c4[nH]c5ccccc5c4CCN3C[C@@H]2CC[C@@H]1O", "assay": "binding, antagonist, radioligand binding", "quantity": "Hill coefficient", "value": 0.9}
{"Structure (SMILES)": "OCCCN1CC[C@@H]2C[C@H]1c1cc(-c3ccc(C(F)(F)F)cc3)ccc12", "assay": "radioligand binding, PDSP competition binding", "setting": "10 µM", "quantity": "inhibition", "value": "< 50%"}
{"Structure (SMILES)": "CN(C(=O)n1cnc(-c2ccc[n+]([O-])c2)c1)C1CCCCC1", "setting": "10 µM", "quantity": "inhibition", "value": "2.09%"}
{"Structure (SMILES)": "O=C(NO)c1ccc(CN2CCCCc3ccccc32)c(F)c1", "assay": "radioligand binding, radioligand displacement", "setting": "10 µM, mean of replicates", "quantity": "inhibition", "value": "15.9%"}
{"Structure (SMILES)": "CCN1/C(=C/C(C)=O)Sc2ccc(F)cc21", "setting": "10 µM", "quantity": "inhibition", "value": "37.8%"}
{"Structure (SMILES)": "NC(=O)c1nnn(Cc2cc(Cl)c(C(=O)c3ccc(Cl)cc3)c(Cl)c2)c1N", "assay": "cAMP, antagonist, cell-based GPCR", "setting": "10 µM", "scale": "reference: control", "quantity": "response", "value": "> 50%"}
{"note": "Excerpt of the above:"}
{"Structure (SMILES)": "COC(=O)[C@@H]1[C@H]2C[C@H]3c4[nH]c5ccccc5c4CCN3C[C@@H]2CC[C@@H]1O", "assay": "binding, antagonist, radioligand binding", "quantity": "Hill coefficient", "value": 0.9}
